# Results of several laboratories.
# Each line is one published result; not all experiments were run side by side. ± marks the error that the study gave.
# Organism: Staphylococcus aureus
Compound,test,test system,conditions,quantity,value
CC(=NO)c1cccc(C(C)(C)NC(=O)Nc2ccc(Cl)c(-c3nc(C(F)(F)F)cs3)c2)c1,,"Smith, RPMI medium",with: no guanosine,MIC,1 µM
CCCC1c2ccccc2C=NN1C(=O)/C=C/c1cc(Cc2cnc(N)nc2N)cc(OC)c1OC (racemic),,29213,,MIC,0.125 to 0.25 µg/mL
O=[N+]([O-])c1ccccc1S(=O)(=O)Nc1ccc2c(c1)B(O)OC2,broth microdilution,MRSA ATCC BAA-1762,,MIC,6.25 µg/mL
CO[C@H]1[C@H](O[C@H]([C@H]2O[C@@H](n3ccc(=O)[nH]c3=O)[C@H](O)[C@@H]2O)[C@H](NCCCNC(=O)[C@@H](NC(=O)[C@@H](NC(=O)N[C@H](C(=O)O)C(C)C)[C@@H]2CCNC(=N)N2)[C@@H](OC(=O)CCCCCCCCCCCCNC(=N)N)C(C)C)C(N)=O)O[C@H](CN)[C@H]1O,alamar blue,71080,,MIC90,15 ± 0.239 µg/mL
CCc1nc(N)nc(N)c1C#C[C@H](C)c1cc(OC)cc(-c2ccncc2)c1,broth microdilution,F98Y DHFR mutant,"18 h, 37 °C",MIC,5 µg/mL
C=C(C)c1cccc(C(C)(C)NC(=O)Nc2ccc(Cl)c(O)c2)c1,,"Smith, RPMI medium",with: no guanosine,MIC,3 µM
O=[N+]([O-])c1ccc(S(=O)(=O)Nc2ccc3c(c2)B(O)OC3)cc1F,broth microdilution,MRSA ATCC BAA-1762,,MIC,1.56 µg/mL
CCc1nc(N)nc(N)c1C#CC(C)c1cc2c(c(-c3ccc(CC(=O)O)cc3)c1)OCO2 (centres unmarked),,ATCC 43300,"18 h, 37 °C",MIC,0.01 µg/mL
CO[C@H]1[C@H](O[C@H]([C@H]2O[C@@H](n3ccc(=O)[nH]c3=O)[C@H](O)[C@@H]2O)[C@H](NCCCNC(=O)[C@@H](NC(=O)[C@@H](NC(=O)N[C@H](C(=O)O)C(C)C)[C@@H]2CCNC(=N)N2)[C@@H](OC(=O)CCCCCCCCCCCCN(O)C(=N)N)C(C)C)C(N)=O)O[C@H](CN)[C@H]1O,alamar blue,71080,,MIC90,15.2 ± 0.236 µg/mL
CC(=O)c1cccc(C(C)(C)NC(=O)Nc2ccc(Cl)c(-c3nc(C(F)(F)F)cs3)c2)c1,,"Smith, RPMI medium",with: 1 mM guanosine,MIC,> 30 µM
CCc1nc(N)nc(N)c1C#CC(C)c1cc2c(c(-c3ccc(C(=O)O)cc3)c1)OCO2 (centres unmarked),,ATCC 43300,"18 h, 37 °C",MIC,0.02 µg/mL
